Measured values gathered from unrelated publications.
Lines come from different studies, so protocols differ.

| Compound | cell line | effect on | technique | time | setting | GI50 |
| --- | --- | --- | --- | --- | --- | --- |
| Cc1ccc(Nc2ncc3c(n2)N(C)C(=O)N(c2cc(NC(=O)c4ccc(CN5CCC(N(C)C)C5)c(C(F)(F)F)c4)ccc2C)C3)cn1 (centres unmarked) | Hep3B | cell growth or viability | ATP luminescence | 72 h |  | 120 nM |
| CCC(=C(c1ccc(Cl)cc1)c1ccc(OCCCN(C)C)cc1)c1ccc(OC)cc1 | EKVX | cell growth or viability | SRB |  |  | 5760 nM |
| CCON=C(C(O)C(C)O)C(OC)C1Cc2cc3cc(OC4CC(OC5CC(O)C(O)C(C)O5)C(O)C(C)O4)c(C)c(O)c3c(O)c2C(=O)C1OC1CC(OC2CC(OC3CC(C)(O)C(O)C(C)O3)C(O)C(C)O2)C(O)C(C)O1 (centres unmarked) | TC-32 | cell growth |  | 72 h |  | 44 nM |
| Cc1ccc(Nc2ncc3c(n2)N(C)C(=O)N(c2cc(NC(=O)c4ccc(N5CCN(C)CC5)c(C(F)(F)F)c4)ccc2C)C3)cn1 | Huh-7 | cell growth or viability | ATP luminescence | 72 h |  | 70 nM |
| CC/C=C\C/C=C\C/C=C\C/C=C\C/C=C\C/C=C\CCC(=O)Nc1ccn(C2OC(CO)C(O)C2(F)F)c(=O)n1 (centres unmarked) | LOX IMVI | cell growth or viability | SRB |  |  | 41.4 nM |
| Cc1ccc(Nc2ncc3c(n2)N(Cc2ccccc2)C(=O)N(c2cc(NC(=O)c4cccc(C(F)(F)F)c4)ccc2C)C3)cn1 | Hep3B | cell growth or viability | ATP luminescence | 72 h |  | 633 nM |
| CC(=C(c1ccc(O)cc1)c1ccc(Cl)cc1)c1ccc(Cl)cc1 | OVCAR-5 | cell growth or viability |  |  |  | 2900 nM |
| COC(C(=NOCC(=O)Nc1cncnc1)C(O)C(C)O)C1Cc2cc3cc(OC4CC(OC5CC(O)C(O)C(C)O5)C(O)C(C)O4)c(C)c(O)c3c(O)c2C(=O)C1OC1CC(OC2CC(OC3CC(C)(O)C(O)C(C)O3)C(O)C(C)O2)C(O)C(C)O1 (centres unmarked) | TC-32 | cell growth |  | 72 h |  | 361 nM |
| CCN1C(=O)N(c2cc(NC(=O)c3cccc(C(F)(F)F)c3)ccc2C)Cc2cnc(Nc3ccc(C)nc3)nc21 | Hep3B | cell growth or viability | ATP luminescence | 72 h |  | 652 nM |
| COC(C(=NOCc1ccccc1)C(O)C(C)O)C1Cc2cc3cc(OC4CC(OC5CC(O)C(O)C(C)O5)C(O)C(C)O4)c(C)c(O)c3c(O)c2C(=O)C1OC1CC(OC2CC(OC3CC(C)(O)C(O)C(C)O3)C(O)C(C)O2)C(O)C(C)O1 (centres unmarked) | TC-32 | cell growth |  | 72 h |  | 117 nM |
| CC(C)c1cnn2c(NCc3ccccc3F)cc(N[C@H]3CC[C@@H](N)CC3)nc12 | HCT-116, MCF7 and A549 |  |  |  |  | 1000 nM |
| COC(=O)c1cc(OC)nc2c(-c3ccc(N4CCCCC4)cc3)csc12 | best of six cancer lines |  | SRB |  |  | < 10000 nM |
| Cn1cc(-c2cc(N3CCCCS3(=O)=O)ccc2N[C@H]2CC[C@H](C)CC2)c2cc[nH]c2c1=O (stereo in doubt) | CAL-27 | cell growth or viability | CCK-8 | 72 h |  | 120 nM |
| COC1CN([C@H]2CC[C@H]([C@@]3(C)Oc4c(Cl)cc(C(=O)NCc5c(SC)cc(C)[nH]c5=O)c(C)c4O3)CC2)C1 | RT-4 | cell growth or viability | ATP luminescence | 12 days |  | > 1000 nM |
| Cc1ccc(NC(=O)c2cccc(C(F)(F)F)c2)cc1N1Cc2cnc(Nc3ccccc3)nc2N(C)C1=O | Huh-7 | cell growth or viability | ATP luminescence | 72 h |  | 66 nM |
| COC(C(=NOC(C)(C)C)C(O)C(C)O)C1Cc2cc3cc(OC4CC(OC5CC(O)C(O)C(C)O5)C(O)C(C)O4)c(C)c(O)c3c(O)c2C(=O)C1OC1CC(OC2CC(OC3CC(C)(O)C(O)C(C)O3)C(O)C(C)O2)C(O)C(C)O1 (centres unmarked) | TC-32 | cell growth |  | 72 h |  | 416 nM |
| CC(Cc1ccc(Cl)cc1)=C(c1ccc(Cl)cc1)c1ccc(OCCN(C)C)cc1 | EKVX | cell growth or viability | SRB |  |  | 4750 nM |
| C1=[N+]2CCCC[N+]3=Cc4ccc5[n]4[Au-]23[n]2c1ccc2-c1nc2ccccc2nc1-5.F[P-](F)(F)(F)(F)F | colon cancer cell lines |  |  |  | NCI60 panel mean | 7000 nM |
| COC(C(=NOCCCc1c[nH]c2ccccc12)C(O)C(C)O)C1Cc2cc3cc(OC4CC(OC5CC(O)C(O)C(C)O5)C(O)C(C)O4)c(C)c(O)c3c(O)c2C(=O)C1OC1CC(OC2CC(OC3CC(C)(O)C(O)C(C)O3)C(O)C(C)O2)C(O)C(C)O1 (centres unmarked) | TC-32 | cell growth |  | 72 h |  | 59 nM |
| Cc1ccc(Nc2ncc3c(n2)N(C)C(=O)N(c2cc(NC(=O)c4ccccc4)ccc2C)C3)cn1 | Huh-7 | cell growth or viability | ATP luminescence | 72 h |  | 1390 nM |
| COC(C(=NO)C(O)C(C)O)C1Cc2cc3cc(OC4CC(OC5CC(O)C(O)C(C)O5)C(O)C(C)O4)c(C)c(O)c3c(O)c2C(=O)C1OC1CC(OC2CC(OC3CC(C)(O)C(O)C(C)O3)C(O)C(C)O2)C(O)C(C)O1 (centres unmarked) | TC-32 | cell growth |  | 72 h |  | 231 nM |
| O=c1[nH]c(N2CCC3(CC2)CN(CCO)c2cc(F)cc(F)c23)nc2c1CCCC2 | COLO 320DM | cell growth or viability | MTT | 5 days |  | 449 nM |
| COC(C(=NOCC(=O)NCCc1ccccc1)C(O)C(C)O)C1Cc2cc3cc(OC4CC(OC5CC(O)C(O)C(C)O5)C(O)C(C)O4)c(C)c(O)c3c(O)c2C(=O)C1OC1CC(OC2CC(OC3CC(C)(O)C(O)C(C)O3)C(O)C(C)O2)C(O)C(C)O1 (centres unmarked) | TC-32 | cell growth |  | 72 h |  | 243 nM |
| Cc1ccc(Nc2ncc3c(n2)N(c2ccccc2)C(=O)N(c2cc(NC(=O)c4cccc(C(F)(F)F)c4)ccc2C)C3)cn1 | Hep3B | cell growth or viability | ATP luminescence | 72 h |  | 1510 nM |
| COC(C(=NOCC(=O)O)C(O)C(C)O)C1Cc2cc3cc(OC4CC(OC5CC(O)C(O)C(C)O5)C(O)C(C)O4)c(C)c(O)c3c(O)c2C(=O)C1OC1CC(OC2CC(OC3CC(C)(O)C(O)C(C)O3)C(O)C(C)O2)C(O)C(C)O1 (centres unmarked) | TC-32 | cell growth |  | 72 h |  | 1150 nM |
| Cc1ccc(Nc2ncc3c(n2)N(C2CCCCC2)C(=O)N(c2cc(NC(=O)c4cccc(C(F)(F)F)c4)ccc2C)C3)cn1 | Huh-7 | cell growth or viability | ATP luminescence | 72 h |  | 93 nM |

Excerpt of the above:
| Compound | cell line | effect on | technique | time | setting | GI50 |
| --- | --- | --- | --- | --- | --- | --- |
| Cn1cc(-c2cc(N3CCCCS3(=O)=O)ccc2N[C@H]2CC[C@H](C)CC2)c2cc[nH]c2c1=O (stereo in doubt) | CAL-27 | cell growth or viability | CCK-8 | 72 h |  | 120 nM |
| COC1CN([C@H]2CC[C@H]([C@@]3(C)Oc4c(Cl)cc(C(=O)NCc5c(SC)cc(C)[nH]c5=O)c(C)c4O3)CC2)C1 | RT-4 | cell growth or viability | ATP luminescence | 12 days |  | > 1000 nM |
| Cc1ccc(NC(=O)c2cccc(C(F)(F)F)c2)cc1N1Cc2cnc(Nc3ccccc3)nc2N(C)C1=O | Huh-7 | cell growth or viability | ATP luminescence | 72 h |  | 66 nM |
| COC(C(=NOC(C)(C)C)C(O)C(C)O)C1Cc2cc3cc(OC4CC(OC5CC(O)C(O)C(C)O5)C(O)C(C)O4)c(C)c(O)c3c(O)c2C(=O)C1OC1CC(OC2CC(OC3CC(C)(O)C(O)C(C)O3)C(O)C(C)O2)C(O)C(C)O1 (centres unmarked) | TC-32 | cell growth |  | 72 h |  | 416 nM |
